# Results pooled from the literature.
# Each numbered part is a random draw from the data of one study; scales do not carry over between parts.

# Sample 1 — target: UBE2L3 UBC core domain (UniProt P68036); technique: yeast two-hybrid; sample: yeast; setting: mostly zero background; relative to: not given; reading: higher = stronger interaction
# Chain of UniProt P68036 (whole entry, looked up): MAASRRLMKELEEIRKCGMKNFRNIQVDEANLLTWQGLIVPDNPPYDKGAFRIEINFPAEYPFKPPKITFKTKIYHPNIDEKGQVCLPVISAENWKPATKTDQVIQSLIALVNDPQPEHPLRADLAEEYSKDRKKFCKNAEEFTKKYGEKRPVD
# B1: TRIM52 RING domain (UniProt Q96A61); chain PMQTLQEEAVCAICLDYFKDPVSISCGHNFCRGCVTQLWSKEDEEDQNEEEDEWEEEEDEEAV
# B2: MSL2 RING domain (UniProt Q9HCI7); chain LLPYFRQSLSCCVCGHLLQDPIAPTNSTCQHYVCKTCKGKKMMMKPSCSWCKDYEQFEENKQ
# B3: TRIM10 RING domain (UniProt Q9UDY6); chain SVTSLADEVNCPICQGTLREPVTIDCGHNFCRACLTRYCEIPGPDLEESPTCPLCKEPFRPGSFRP
# B4: RNF149 RING domain (UniProt Q8NC42); chain EKGIDVDAENCAVCIENFKVKDIIRILPCKHIFHRICIDPWLLDHRTCPMCKLDVIKALGYW
# B5: PEX2 RING domain (UniProt P28328); chain DNTLATSGKECALCGEWPTMPHTIGCEHIFCYFCAKSSFLFDVYFTCPKCGTEVHSLQPLK
# B6: NSMCE1 RING domain (UniProt Q8WV22); chain RETYPDAVKICNICHSLLIQGQSCETCGIRMHLPCVAKYFQSNAEPRCPHCNDYWPHEIPKV
# B7: RNF112 RING domain (UniProt Q9ULX5); chain QPMAPRELPTCSICLERLRDPISLDCGHDFCIRCFSTHRLPGCEPPCCPECRKICKQKRGLR
# B8: RNF175 RING domain (UniProt Q8N4F7); chain LPTRSLSDNICAVCGQKIIVELDEEGLIENTYQLSCNHVFHEFCIRGWCIVGKKQTCPYCKEKVDLKRMIS
Sequence,lacZ reporter activity
QLQDEEDDSLCRICMDAVIDCVLLECGHMVTCTKCGKRMSECPICRQYVVRAVHVF (RNF34 RING domain (UniProt Q969K3)),0
B1 (TRIM52 RING domain),0
B2 (MSL2 RING domain),0
MANWVFCNRCFQPPHRTSCFSLTNCGHVYCDACLGKGKKNECLICKAPCRTVLLSK (RNF212 RING domain (UniProt Q495C1)),0
B3 (TRIM10 RING domain),0
B4 (RNF149 RING domain),0
B5 (PEX2 RING domain),0
B6 (NSMCE1 RING domain),0
B7 (RNF112 RING domain),0
SYEDKSNDFVCPICFDMIEEAYMTKCGHSFCYKCIHQSLEDNNRCPKCNYVVDNIDHLY (COP1 RING domain (UniProt Q8NHY2)),0
B8 (RNF175 RING domain),0

# Sample 2 — technique: protein-binding microarray; molecule type: double-stranded DNA, one strand shown; sample: in vitro; tested at: 940 nM top; setting: 60-bp whole probe; added: salmon DNA 0.4 mg/ml; relative to: random background probes; reading: higher = stronger binding; all sequences stand within: GCCTAGCAC … GTCTTGATTCGCTTGACGCTGCTG
# Target: Interferon regulatory factor 5, full length, phosphomimetic (IRF5, Homo sapiens, UniProt Q13568-2, residues 1-514, S451D/S453D/S456D/S462D)
Sequence,fitted relative affinity
GACGGTATCGGGCATCGGGACGTGCTA,3.42 z-score
GACGCTTTCCTTCTCCTGACGTGCTAG,1.16 z-score
TTAGGACAGGGGACTGGGTTAGTGCTA,0.194 z-score
TTAGGACTGTGGACTGGGTTAGTGCTA,-0.438 z-score
TCAGGTGTTCTTTTCTGACTGTGCTAG,0.67 z-score
TTAGGTATCGGTATCGGTTTGTGCTAG,11.3 z-score
ATGTCTTCCCCTCTCATTCCGTGCTAG,0.902 z-score
TTAGGTATCGGGCTCGGTTAGTGCTAG,3.95 z-score
TCATTTTTTTTTTTGGAACTGTGCTAG,1.12 z-score
TTAGAACTGAGTTTCGATTCGTGCTAG,7.5 z-score
TCATTTTTTTTTTTACTACTGTGCTAG,1.41 z-score
GACGGTATCGGACTTGGGACGTGCTAG,2.13 z-score
TTAGGTCTCGGACTGGGTCAGTGCTAG,0.886 z-score
GACGGTATCGACACTGAGGACGTGCTA,3.96 z-score
GACGGCTCCGGTTTCGGGACGTGCTAG,3.22 z-score
GACGGTTTCCTCTCCCTGACGTGCTAG,1.2 z-score
GACGGTTTTCTTATCCTGACGTGCTAG,1.12 z-score
AGTTTTTCATTTTTTTTCATGTGCTAG,2.08 z-score
TTAGATATCTGACTGGATTAGTGCTAG,-0.165 z-score

# Sample 3 — technique: RNA Bind-n-Seq; molecule type: RNA; sample: in vitro; tested at: not given; relative to: input RNA pool; reading: higher = stronger binding
# Target: RING finger protein unkempt homolog, zinc fingers 1-6, GST-SBP tag (UNK, Homo sapiens, UniProt Q9C0B0, residues 30-357)
# Chain of UniProt Q9C0B0 (30-357, looked up): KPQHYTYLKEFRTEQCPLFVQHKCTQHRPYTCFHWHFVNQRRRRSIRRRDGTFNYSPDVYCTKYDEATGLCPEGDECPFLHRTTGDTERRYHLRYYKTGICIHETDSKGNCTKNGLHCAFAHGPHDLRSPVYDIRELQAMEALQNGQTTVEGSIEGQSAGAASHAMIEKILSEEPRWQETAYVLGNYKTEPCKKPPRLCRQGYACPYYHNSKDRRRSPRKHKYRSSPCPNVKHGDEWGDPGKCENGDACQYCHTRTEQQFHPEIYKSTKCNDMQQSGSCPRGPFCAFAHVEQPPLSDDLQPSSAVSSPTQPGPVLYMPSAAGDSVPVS
# Setting: RNA with constant flanks, human-mouse chimeric sites, ends assumed
Sequence,bound/input enrichment
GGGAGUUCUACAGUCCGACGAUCUGUGCCCCACAAGAUCCUACCUGAGUGGCAGCUGAAGUUGACUCCCUCUCCUUGCCUGAACCCCCCCCCACUGCCCCCCCAUCCCCCAGUGUCGGCUAUUCUCUGGUCUCUGCACGGUUCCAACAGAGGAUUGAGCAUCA,0.44 ratio
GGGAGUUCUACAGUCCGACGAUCGAAUCCUACUCAGGCGGAUUUUGCAACACCAAGCUCAAGUAGCAAUUAUCUUAGUCACAGUAGGGUAGUUUUGGGGCUCUGUGGCCAGGGUUUUAUUCACAUGCAGGUUUUGAAAAUGUACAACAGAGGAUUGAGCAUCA,1.67 ratio
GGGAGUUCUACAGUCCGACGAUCGACUUUGGAACUGGUCCUCGCAACGCAGCCUUCUAUAGCCCUCAUGGACAUAUAUUAGUAUUAGCUGGAUUUGGAAAUCUUCGAGGACAAAUGGAAGUAUGGGAUGUUAAAAACUACAAGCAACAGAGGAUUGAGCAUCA,0.687 ratio
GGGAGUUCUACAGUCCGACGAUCGUUCGACUCUGGGAUCAUGCCACAAUGACAGAAGUGAAAUCUCUGAAUUUUAAUAUGUCUGUUAGUAGCAUGGAGUAUAUUCCUGAAGGAGAGAUUUUGGUUAUUACUUAUGGACGAUCUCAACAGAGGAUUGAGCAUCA,0.226 ratio
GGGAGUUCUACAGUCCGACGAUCGAAUCCUACUCAGGCGGAUUUUGCAACACCAAGCUCACAGCAGCAGCAUCUUAGUCACAGUAGGGUAGCUUUAGGGCUCUGUGGCCAGGGUUUUAUUCAUGUGCAGGUUUGGAAAAUGUACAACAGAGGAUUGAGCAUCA,0.508 ratio
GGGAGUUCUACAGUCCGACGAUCUCGGAUGCUGUGCUGGGUCACUUUUCAUAUCCAGAUCCUUCACAGUGGACAGAUGAAGAAUUAGGUAUCCCUCCUGAUGACGAGGACUGACACUGUAAACUCUCUGGCACUCUGUACGCACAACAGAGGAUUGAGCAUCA,0.266 ratio
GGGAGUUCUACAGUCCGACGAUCCACAGAGCAGCACCUACCUCCUCCUUCUUUCCACACCUGCAAACUCUUUUACUUGGGCUGAAUAUUUAGUGUUAAUUCAUCUCAGCUUUGAGGGCUCCUGUGGCAAAUUCCCGGAUUAAACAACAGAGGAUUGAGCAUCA,0.534 ratio
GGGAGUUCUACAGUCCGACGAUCAAAGUGGACUAUGGCGAAUACAUGGAUAAAAAUAAUGUGAGGCGGCAAGCAACAACAAUCAUAGCUGAUAACAUUAUAUUUCUGAGUGACCAGACAAAAGAAAAGGCAUAGAACGGAUGACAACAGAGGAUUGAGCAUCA,1.49 ratio

# Sample 4 — technique: EMSA with sequencing; molecule type: double-stranded DNA, one strand shown; sample: in vitro; tested at: 10 and 20 nM; relative to: negative control set to 0; reading: higher = stronger binding
# Target: Hepatocyte nuclear factor 3-alpha (Foxa1, Mus musculus, UniProt P35582, residues 1-468, full length assumed)
# Setting: whole designed probe, mean of two concentrations, ends assumed
# Residues (chain): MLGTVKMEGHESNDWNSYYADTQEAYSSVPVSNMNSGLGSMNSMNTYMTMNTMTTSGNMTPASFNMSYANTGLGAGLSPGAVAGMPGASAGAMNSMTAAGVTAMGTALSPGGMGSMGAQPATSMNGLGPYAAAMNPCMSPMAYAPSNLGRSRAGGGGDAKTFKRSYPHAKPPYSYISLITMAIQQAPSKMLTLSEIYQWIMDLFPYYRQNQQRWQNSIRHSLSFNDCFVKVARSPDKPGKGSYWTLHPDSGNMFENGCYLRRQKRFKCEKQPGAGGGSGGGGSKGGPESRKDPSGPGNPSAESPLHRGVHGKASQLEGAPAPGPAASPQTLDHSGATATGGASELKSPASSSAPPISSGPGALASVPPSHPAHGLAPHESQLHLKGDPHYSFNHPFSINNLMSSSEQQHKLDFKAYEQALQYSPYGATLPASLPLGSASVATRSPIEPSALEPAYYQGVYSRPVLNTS
Sequence,normalised bound fraction [ratio]
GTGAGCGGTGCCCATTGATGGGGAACAAGACCGGCAGCCTCTGGTTCCTGTTGTTGTTTTTTAAGTGCGCGGAGGCGCAGGCGAAACTCGGAGTTTCCAACTCGTTGCTTATTTTGCAAAGTAATCTAGCAAATGTTATGTGCATAACCTTCGCTGTCTCGCTAAAGGTCAGCGCGCCCCTGCTCATTTCCCGGGCTGCCTTTTGGGGGCACTCTGATGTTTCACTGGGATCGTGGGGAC,0.00983
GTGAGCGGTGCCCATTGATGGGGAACTTTCAGTAGGTGGTAGTGGGTTCAGGAAATCTGTGTTTTTACCAAAGTATCCCCTACTATAGAATTAATTTTTGTGTTCCCCCCTCATTCATAAGATGACATTTAAACCTCCACTGTGATGATACCAGGTGGCTTTGGGAGGTGATTAGGTGATAACGATGAAGCCCTCATAAATGTGATTACTGACCTAATATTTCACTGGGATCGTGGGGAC,-0.0632
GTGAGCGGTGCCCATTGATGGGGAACCCTAGGACCATCTTCTACTTATGAGAGTGAACTTCACTGTATGTCACCAATTCCGTACCTTGTCTATTGTTTAATAGTCGAGATACTGTCAAAGTAAACAAATGCTGCGACGATGTGGACTGAAGGGTATGGTCTTAACTCCAAATAAGCAAAGGAAGAAAAATACGTTTCTGGTTCGGCCTTTTCTCTCAGATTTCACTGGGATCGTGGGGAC,0.507
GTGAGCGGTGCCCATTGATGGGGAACTAGACAAGTTTACGTAATCCTTCTGTTCCTCAGTTTCCTCATCTGTTACATGGGTGATATTAATAGGGTGTACCTTTTGATTGGGCTGGACCCTGTTTGCATTCTGCCCTGAAGGAGAGCGGGGCTGTGGGTCAAAGCTGCCCTAATTATAGGTGCAGCATCCGGAGCAAGGTGTTGCTTGGCTCTGCACTGCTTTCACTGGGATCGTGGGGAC,0.0348
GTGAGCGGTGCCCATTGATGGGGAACGATGTTTTTGTTGTTGTTAATCTGGAGCTAAGGATGGTTGCATTGAGATTGCATTCTAGATAACAAAGCTGGCAGTCGCAGTGAAGGAGGGTCAAGATTGCACAGCAGTGATTCAGAGCTCTGCCAGGACAGCTGCCAGTGCAGTTTATCTCCCAGTCCGATCAGGCCTTGGCGCAGGGAGGGAAGGTGGCCCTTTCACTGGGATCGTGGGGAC,-0.074
